Results gathered from unrelated publications.
Lines come from different studies, so protocols differ. Several values in a cell are separate wells, animals, samples, runs or records. ± marks the error that the study gave.
APP: Amyloid-beta precursor protein (APP, Homo sapiens, UniProt P05067)
APP amyloid-beta insoluble aggregates: Amyloid-beta precursor protein, amyloid-beta insoluble aggregates (APP, Homo sapiens, UniProt P05067)
APP amyloid-beta fibrils: Amyloid-beta precursor protein, amyloid-beta fibrils (APP, Homo sapiens, UniProt P05067)

`Clc1ccc2c(c1)N(CCCN1CCN(CCn3cc(CN4CCCNCCN(Cc5cn(CCN6CCN(CCCN7c8ccccc8Sc8ccc(Cl)cc87)CC6)nn5)CCCNCC4)nn3)CC1)c1ccccc1S2.[Cu+2].[O-][Cl+3]([O-])([O-])[O-].[O-][Cl+3]([O-])([O-])[O-]` — result for “lowest significant inhibitory concentration”: at least 1 µM (APP; amyloid fibril formation, inhibitor, thioflavin T; added: 2.5 µM Aβ42).
For `CC[C@H](C)[C@H](NC(=O)[C@H](CCC(N)=O)NC(=O)[C@@H](NC(=O)[C@@H]1CCCN1[C@@H]1CN(C(=O)[C@H](CCCCN)NC(=O)[C@H](CC(N)=O)NC(=O)[C@@H](NC(=O)[C@@H](NC(=O)[C@H](CCC(N)=O)NC(=O)[C@@H](N)C(C)C)[C@@H](C)CC)[C@@H](C)CC)CC[C@H]1NS(=O)(=O)c1ccc(C)cc1)C(C)C)C(=O)N[C@H](C(=O)N[C@@H](Cc1ccc(O)cc1)C(=O)N[C@@H](CCCCN)C(N)=O)C(C)C`, the ThT fluorescence was 104 ± 4% (APP; fibril formation, ThT fluorescence; 10 µM, 42 h, pH 7.4, equimolar to peptide, added: amyloid-beta 1-42 10 µM; baseline: untreated amyloid-beta).
With `CC(C)C[C@H](NC(=O)CCS[C@H]1O[C@H](CO)[C@@H](O)[C@H](O)[C@H]1O)C(=O)N1CCC[C@H]1C(=O)N[C@@H](Cc1ccccc1)C(=O)N[C@@H](Cc1ccccc1)C(=O)N[C@@H](CC(=O)O)C(=O)N[C@@H](CC(=O)O)C(=O)N[C@@H](C)C(=O)N[C@@H](Cc1c[nH]cn1)C(=O)N[C@@H](CCCCN)C(N)=O` the inhibition was 91% (Amyloid-beta precursor protein, fibril (APP, Homo sapiens, UniProt P05067); amyloid aggregation, inhibitor; 20 µM).
For `O=C1c2sc(-c3ccc(N4CCC(F)C4)nc3F)nc2CCN1c1cccnc1` (stereo not drawn), the specific binding was 78 a.u. and 110 a.u. (APP amyloid-beta insoluble aggregates; radioligand filter binding; AD brain insoluble fraction; 25 nM; higher = more binding).
For `COc1cc(/C=C/C(=O)C2=C(/C=C/c3ccc(O)c(OC)c3)NC(=S)NC2[c-]2cccc2)ccc1O.[Fe+2].c1cc[cH-]c1` (racemic), the fibril length was 0.55 ± 0.29 µm (Amyloid-beta precursor protein, Aβ1-40 fibrils (APP, Homo sapiens, UniProt P05067); single-molecule localization microscopy; 100 µM, 1 h, room temperature, added: amyloid beta 20 µM).
`CCC1CC2C(C)=CC3C(=O)CCCC3C=CC(C)=CC2C(=O)O1` (stereo not drawn) gave a fibril dissociation of 22.1% (APP amyloid-beta fibrils; thioflavin T, refers to: Aβ42 pre-formed fibrils; 500 µM).
With `O=c1cc(/C=C/c2ccc(N3CCCC3)cc2)oc(/C=C/c2ccc(N3CCCC3)cc2)c1` the fluorescence enhancement was 2.6 fold (APP; binding, fluorescence; 2 µM, 7.4 min, pH 10, Abeta pre-incubated 5 h, added: 20 µM pre-incubated Abeta species).
For `CC[C@H](C)[C@H](NC(=O)[C@@H](NC(=O)[C@H](CCCCN)NC(=O)[C@@H](N)[C@@H](C)O)C(C)C)C(=O)N[C@@H](CC(C)C)C(=O)N[C@@H](Cc1c[nH]cn1)C(N)=O`, the ThT fluorescence was 95 ± 14% (APP; fibril formation, ThT fluorescence; 10 µM, 42 h, pH 7.4, equimolar to peptide, added: amyloid-beta 1-42 10 µM; baseline: untreated amyloid-beta).
With `O=C1c2sc(-c3ccc(N4CCC(CO)CC4)nc3F)nc2CCN1c1cccnc1` the specific binding was 1100 a.u. and 953 a.u. (APP amyloid-beta insoluble aggregates; radioligand filter binding; AD brain insoluble fraction; 150 nM; higher = more binding).
The ThT fluorescence of `CC[C@H](C)[C@H](NC(=O)[C@@H](NC(=O)[C@@H](NC(=O)[C@@H](NC(=O)[C@@H](N)CCCCN)C(C)C)C(C)C)C(C)C)C(=O)N[C@H](C(N)=O)[C@@H](C)O` is reported as 95 ± 12% (APP; fibril formation, ThT fluorescence; 10 µM, 42 h, pH 7.4, equimolar to peptide, added: amyloid-beta 1-42 10 µM; baseline: untreated amyloid-beta).
With `CCC1CC2C(C)=CC3C(=O)C=CCC3C=CC(C)=CC2C(=O)O1` (stereo not drawn) the fibril dissociation was 6.82% (APP amyloid-beta fibrils; thioflavin T, refers to: Aβ42 pre-formed fibrils; 5 µM).
With `CC[C@H](C)[C@H](NC(=O)[C@@H](NC(=O)[C@@H](NC(=O)[C@@H](NC(=O)[C@H](CCCCN)NC(=O)[C@H](CCC(=O)O)NC(=O)[C@H](C)N)C(C)C)C(C)C)C(C)C)C(=O)N[C@H](C(=O)N[C@@H](CCCCN)C(N)=O)[C@@H](C)O` the aggregation half-time was 104 ± 3% (APP; fibril formation, ThT fluorescence; 1-fold of peptide, pH 7.4, room temperature, added: amyloid-beta 10 µM; baseline: untreated).
The fibril diameter of `CCCCCCCCCCCCCCCC(=O)OCC(CSC[C@H](N)C(=O)N[C@@H](CO)C(=O)N[C@@H](CCCCN)C(=O)N[C@@H](CCCCN)C(=O)N[C@@H](CCCCN)C(=O)N[C@@H](CCCCN)C(=O)NCCCCCC(=O)N[C@@H](CCCCN)C(=O)N[C@@H](CC(C)C)C(=O)N[C@H](C(=O)N[C@@H](Cc1ccccc1)C(=O)N[C@@H](Cc1ccccc1)C(=O)N[C@@H](Cc1ccc2ccccc2c1)C(=O)O)C(C)C)OC(=O)CCCCCCCCCCCCCCC` (stereo partly drawn) is reported as 71.5 nm (Amyloid-beta precursor protein, fibrillar amyloid-beta (APP, Homo sapiens, UniProt P05067); TEM; 2.0 eq, 3 h, fibril 3, added: APP 20 µM).
The ThT fluorescence of `CC[C@H](C)[C@H](NC(=O)[C@@H](NC(=O)[C@H](CCCCN)NC(=O)[C@@H](NC(=O)CNC(=O)[C@@H](N)CCCNC(=N)N)[C@@H](C)O)C(C)C)C(=O)N[C@@H](CC(C)C)C(=O)N[C@@H](Cc1c[nH]cn1)C(=O)N[C@@H](CC(C)C)C(N)=O` is reported as 102 ± 29% (APP; fibril formation, ThT fluorescence; 10 µM, 42 h, pH 7.4, equimolar to peptide, added: amyloid-beta 1-42 10 µM; baseline: untreated amyloid-beta).
For `CC[C@H](C)[C@@H](C(=O)N[C@H](C(=O)N(N)[C@@H](Cc1ccc(O)cc1)C(=O)N[C@@H](CCCCN)C(N)=O)C(C)C)N(N)C(=O)[C@H](CCC(N)=O)NC(=O)[C@@H](NC(C)=O)C(C)C`, inhibition read “no inhibition” (APP; aggregation, ThT fluorescence; up to 160 µM, added: APP 40 µM).

For quick reference, copied from above:
With `CCC1CC2C(C)=CC3C(=O)C=CCC3C=CC(C)=CC2C(=O)O1` (stereo not drawn) the fibril dissociation was 6.82% (APP amyloid-beta fibrils; thioflavin T, refers to: Aβ42 pre-formed fibrils; 5 µM).
`CCC1CC2C(C)=CC3C(=O)CCCC3C=CC(C)=CC2C(=O)O1` (stereo not drawn) gave a fibril dissociation of 22.1% (APP amyloid-beta fibrils; thioflavin T, refers to: Aβ42 pre-formed fibrils; 500 µM).
